Experimental data pooled from the literature.
A part holds a random share of what one study measured. Substitutions count along the parent as printed.
Sequence of UniProt P11802 (whole entry, looked up): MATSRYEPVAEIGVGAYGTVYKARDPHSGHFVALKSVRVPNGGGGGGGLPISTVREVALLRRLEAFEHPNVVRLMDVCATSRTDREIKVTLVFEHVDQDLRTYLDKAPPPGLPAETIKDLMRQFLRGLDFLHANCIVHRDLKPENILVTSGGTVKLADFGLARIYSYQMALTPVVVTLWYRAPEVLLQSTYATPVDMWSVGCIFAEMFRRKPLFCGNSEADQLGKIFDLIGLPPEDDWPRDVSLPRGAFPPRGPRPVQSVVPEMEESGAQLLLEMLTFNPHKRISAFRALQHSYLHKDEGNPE

Study 1 — observed: peptide-MHC binding; form: peptide; tested at: concentration not given
Target: HLA class I histocompatibility antigen, C alpha chain, allele C*04:01 (Homo sapiens, UniProt P10321)
Molecule | binding
LLPRRGPRL | inactive
YLAENTFVV | inactive
ILNRETLLDFV | inactive
FPASHMATY | inactive
MTFPVSLEY | inactive

Study 2 — target: CCNA1, cyclin fold, Cln2 fusion (human); technique: yeast growth competition, sequencing; sample: yeast; notes: weak parent motif; baseline: not given; reading: higher = stronger binding; starting sequence: viral docking peptide; KGVKRKLFAEDSS
Variant | normalised enrichment score
KGVKRKLWAEDSS [F8W] | 0.0358
KGVKRKSFAEDSS [L7S] | 0.282
KGMKRKLFAEDSS [V3M] | 0.0643
KGVKRKLFAEDSA [S13A] | 0.837
KGVKRKLFADDSS [E10D] | 1.38
KCVKRKLFAEDSS [G2C] | 1.23
KGVKRKLFASDSS [E10S] | 0.417

Single results of other studies
Compound | tested on | observed | technique | tested at | with | measurement | value
Cn1cncc1[C@@](O)(COc1ccc(C#N)cc1-c1ccc(OC(F)(F)F)cc1)c1ccc(C#N)cc1 | Cyclin-dependent kinase 4, with cyclin D1 (CDK4, Homo sapiens, UniProt P11802) | cell-free assay | competition with immobilised ligand | 1 µM | – | remaining binding | 93%
CC[C@H](C)c1nc2cc(Nc3ccnc4ccc(S(=O)(=O)C(C)C)cc34)ccc2s1 | L929 | necroptosis protection | CCK-8 | 0.156 µM | TNF-α plus zVAD | viability | 27.3%

Excerpt of the above (study 2):
Variant | normalised enrichment score
KGVKRKLFASDSS [E10S] | 0.417
